{"data": "Published values pooled from the literature", "note": "Each numbered part is a random draw from the data of one study; scales do not carry over between parts."}
{"data": "Block 1", "target": "Histone acetyltransferase KAT6A, winged helix 2, GST fusion (KAT6A, Homo sapiens, UniProt Q92794, residues 85-181)", "technique": "protein binding microarray", "molecule type": "double-stranded DNA, one strand shown", "sample": "in vitro", "tested at": "not given", "notes": "8-mer, flanks averaged, mean of 2 arrays, mostly near background", "baseline": "not given", "reading": "higher = stronger binding", "Construct (chain)": "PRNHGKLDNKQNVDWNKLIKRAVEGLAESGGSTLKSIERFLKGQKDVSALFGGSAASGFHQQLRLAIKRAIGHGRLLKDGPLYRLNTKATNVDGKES"}
{"Sequence": "TAGGGCCA", "E-score": -0.0187}
{"Sequence": "GATTTTGA", "E-score": 0.203}
{"Sequence": "CGAAAACC", "E-score": 0.11}
{"Sequence": "AGTTGAAA", "E-score": -0.0208}
{"Sequence": "CGCATGTC", "E-score": -0.0753}
{"data": "Block 2", "target": "Protein C-ets-1 (ETS1, Homo sapiens, UniProt P14921, residues 1-441, full length assumed)", "technique": "protein-binding microarray", "molecule type": "double-stranded DNA, one strand shown", "sample": "in vitro", "tested at": "not given", "notes": "k-mer, scored over probes, only values ≥0.25", "reading": "higher = stronger binding", "sequence of UniProt P14921 (whole entry, looked up)": "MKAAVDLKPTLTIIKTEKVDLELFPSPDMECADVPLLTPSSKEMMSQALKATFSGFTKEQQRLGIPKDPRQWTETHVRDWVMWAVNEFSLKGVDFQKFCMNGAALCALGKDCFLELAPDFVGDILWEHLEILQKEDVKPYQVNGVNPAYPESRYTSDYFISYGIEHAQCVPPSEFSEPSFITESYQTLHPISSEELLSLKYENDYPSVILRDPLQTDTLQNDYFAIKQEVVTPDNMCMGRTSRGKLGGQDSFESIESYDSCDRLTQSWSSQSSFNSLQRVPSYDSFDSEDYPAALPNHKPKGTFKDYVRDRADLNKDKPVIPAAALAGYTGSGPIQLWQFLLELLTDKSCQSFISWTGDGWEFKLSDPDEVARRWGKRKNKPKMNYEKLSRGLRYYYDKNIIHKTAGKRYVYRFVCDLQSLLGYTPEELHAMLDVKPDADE"}
{"Sequence": "ACCTTCCG", "E-score": 0.444}
{"Sequence": "ACGGATGG", "E-score": 0.393}
{"Sequence": "CCTCCGCA", "E-score": 0.253}
{"Sequence": "AACGGAAA", "E-score": 0.458}
{"Sequence": "CTTTCCCC", "E-score": 0.286}
{"data": "Block 3", "target": "RING finger protein unkempt homolog, zinc fingers 1-6, SBP tag (UNK, Homo sapiens, UniProt Q9C0B0, residues 30-357)", "technique": "RNA Bind-n-Seq", "molecule type": "RNA", "sample": "in vitro", "tested at": "100 nM", "notes": "RNA with constant flanks, vertebrate orthologous sites, ends assumed", "baseline": "input RNA pool", "reading": "higher = stronger binding", "sequence of UniProt Q9C0B0 (30-357, looked up)": "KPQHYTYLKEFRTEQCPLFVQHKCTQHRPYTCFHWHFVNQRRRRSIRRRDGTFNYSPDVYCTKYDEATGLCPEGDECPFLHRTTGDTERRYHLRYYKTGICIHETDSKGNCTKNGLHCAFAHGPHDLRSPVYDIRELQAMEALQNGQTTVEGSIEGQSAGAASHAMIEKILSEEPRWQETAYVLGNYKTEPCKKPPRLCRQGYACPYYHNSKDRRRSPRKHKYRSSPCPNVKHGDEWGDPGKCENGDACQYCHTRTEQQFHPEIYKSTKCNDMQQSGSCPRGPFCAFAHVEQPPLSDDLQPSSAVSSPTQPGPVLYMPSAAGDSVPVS"}
{"Sequence": "GGGAGUUCUACAGUCCGACGAUCUAAUCGCUCUAAUUGUAUUCUGAAUAAAAGUGUAACAUUGUGUAGCCUUUUUGUAUAAAUUAGACACAUAGAAAUGGUCCAAUUAGUUUCCUUUUUAAUAUGCUUAAAAUAAGCAGGUGGCAACAGAGGAUUGAGCAUCA", "bound/input enrichment": "2.17 ratio"}
{"Sequence": "GGGAGUUCUACAGUCCGACGAUCAAAGCAAUGGCUUUUGCUCUAUCACAAAGCUAAGAAACAGACCCACAAAUAAAUAACAAAUAACUAUUUUUGAAAUUCAAAUGUUUAAAUUUUGUAAAUCAGCAGUUUGGGAUGUCUCGUCAACAGAGGAUUGAGCAUCA", "bound/input enrichment": "0.479 ratio"}
{"Sequence": "GGGAGUUCUACAGUCCGACGAUCUCUUUUUCCAGGUUGGAUGUAGUGGCAAAGUCAUAGGAAUUGAUCACAUUAAAGAGCUAGUAGAUGACUCGAUAAAUAAUGUCAGAAAGGAUGAUCCAGCACUUCUGUCUUCUGGGAGAGCAACAGAGGAUUGAGCAUCA", "bound/input enrichment": "0.754 ratio"}
{"data": "Single results of other studies"}
{"Molecule": "PhoQ, residues 284 288 289 292 302 303 AGGLSV", "target": "PhoP, residues 12 14 15 18 19 LHSVW (Escherichia coli, UniProt P23836)", "assay": "Sort-seq, measured: YFP reporter", "test system": "E. coli", "setting": "PhoQ-PhoP variant library, with: 10 µM Mg2+", "scale": "baseline: high Mg2+ state, higher = stronger signaling", "measurement": "fold induction", "result": 2.95}
{"note": "Excerpt of the above (block 2):"}
{"Sequence": "CCTCCGCA", "E-score": 0.253}
